Measurements of several laboratories.
A part holds a random share of what one study measured.

Set 1
Target: Sal-like protein 4, full length isoform B (SALL4, Homo sapiens, UniProt Q9UJQ4-2, residues 1-616)
Technique: universal PBM
Molecule type: double-stranded DNA, one strand shown
Matrix: in vitro
Concentration: not given
Notes: 8-mer, flanks averaged, mean of replicates
Direction: higher = stronger binding
Quantity: E-score
Target sequence (chain): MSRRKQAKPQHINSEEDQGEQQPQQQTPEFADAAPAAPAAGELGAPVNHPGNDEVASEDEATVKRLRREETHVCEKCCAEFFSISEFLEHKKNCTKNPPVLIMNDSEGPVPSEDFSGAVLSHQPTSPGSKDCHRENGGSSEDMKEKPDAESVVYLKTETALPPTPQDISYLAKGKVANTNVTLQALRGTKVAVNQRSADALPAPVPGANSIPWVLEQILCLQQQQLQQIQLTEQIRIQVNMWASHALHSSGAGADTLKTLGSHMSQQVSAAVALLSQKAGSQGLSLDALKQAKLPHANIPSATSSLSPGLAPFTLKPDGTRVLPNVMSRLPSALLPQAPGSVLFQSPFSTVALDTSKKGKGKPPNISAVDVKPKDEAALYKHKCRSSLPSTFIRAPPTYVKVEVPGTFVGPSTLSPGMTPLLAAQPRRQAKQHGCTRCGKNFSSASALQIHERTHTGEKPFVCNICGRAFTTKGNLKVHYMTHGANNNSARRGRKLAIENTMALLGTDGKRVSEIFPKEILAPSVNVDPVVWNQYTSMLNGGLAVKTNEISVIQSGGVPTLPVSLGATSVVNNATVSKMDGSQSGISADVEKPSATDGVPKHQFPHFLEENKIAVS
GTTTTTAA: 0.223
AAGCGTCG: -0.178
ATTTTTAA: 0.296
CAGGCGCC: -0.263
AGATTCAT: 0.199
ATTCTTTC: 0.156
ATGGAGTC: 0.00141
GGATAACA: 0.0271
CCTGTCAC: -0.217
ATAGACTA: 0.186
GCCCCTAC: -0.223
AGGAGCTA: -0.0507
GATTTCCA: 0.0212
ATTGGCCA: -0.0901
AGTACACG: -0.066
CGTAGCCC: -0.307
CCGGCGCC: -0.352
AACGAGGG: -0.0891

Set 2
Target: Interferon regulatory factor 7, full length, phosphomimetic (IRF7, Homo sapiens, UniProt Q92985, residues 1-503, S101K/S471D/S472D/S475D/S476D/S477D/S483D/S484D/S487D)
Technique: protein-binding microarray
Molecule type: double-stranded DNA, one strand shown
Matrix: in vitro
Concentration: 250 nM
Notes: 60-bp whole probe
Together with: salmon DNA 0.4 mg/ml
Baseline: random background probes
Direction: higher = stronger binding
Quantity: log fluorescence
All sequences stand within: GCCTAGCAC … GTCTTGATTCGCTTGACGCTGCTG
Construct (chain): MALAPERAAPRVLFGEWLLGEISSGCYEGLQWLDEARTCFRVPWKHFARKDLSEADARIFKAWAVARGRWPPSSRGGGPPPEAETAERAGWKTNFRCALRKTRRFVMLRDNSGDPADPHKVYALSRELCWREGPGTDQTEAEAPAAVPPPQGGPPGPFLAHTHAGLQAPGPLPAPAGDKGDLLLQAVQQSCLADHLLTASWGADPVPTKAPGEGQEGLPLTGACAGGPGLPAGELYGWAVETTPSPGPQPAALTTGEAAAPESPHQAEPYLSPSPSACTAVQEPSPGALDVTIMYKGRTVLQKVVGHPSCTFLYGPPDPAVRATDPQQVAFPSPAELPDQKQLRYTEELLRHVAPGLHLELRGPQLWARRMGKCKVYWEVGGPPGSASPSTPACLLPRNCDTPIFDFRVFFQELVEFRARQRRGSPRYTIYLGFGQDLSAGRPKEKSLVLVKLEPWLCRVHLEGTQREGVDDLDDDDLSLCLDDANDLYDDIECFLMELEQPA
GACGCTCTCGGACTGGGGACGTGCTAG: -0.139 z-score
GTAGATATCAGTATCGATTAGTGCTAG: 0.459 z-score
GACGGTTTCGGGTCCGGGACGTGCTAG: 6.94 z-score
TCATCTTCACATATAATACTGTGCTAG: 0.593 z-score
TTAGATTCCAGTTTTGATTAGTGCTAG: 3.5 z-score
GACGGTTTCCTTTACCTGACGTGCTAG: 1.87 z-score
TTCGAACTGAGACTGGATTAGTGCTAG: -0.225 z-score
GGCATTTTTTTTATCAATCAGTGCTAG: -0.216 z-score
TTCGGTCTCCTTTTCCTTTAGTGCTAG: 2.14 z-score
GATGTTTTTCATTTTTTTTCGTGCTAG: 0.742 z-score
GCCGGACTGCTTTTCCTGACGTGCTAG: 0.0549 z-score
TTAGATATCGGGTTTGGATTAGTGCTA: 0.123 z-score
TTAGGTTTCGTTCTCCTTTAGTGCTAG: 11.1 z-score
TCATTTTTGTTGTTTTTACTGTGCTAG: 1.04 z-score
GTCGGTTTCGGGTATCGGGACGTGCTA: 8.4 z-score
TTTCTTTTCCATTTTGTGTTGTGCTAG: 3.4 z-score

Set 3
Target: RING finger protein unkempt homolog, zinc fingers 1-6, GST-SBP tag (UNK, Homo sapiens, UniProt Q9C0B0, residues 30-357)
UniProt Q9C0B0, sequence (30-357, looked up): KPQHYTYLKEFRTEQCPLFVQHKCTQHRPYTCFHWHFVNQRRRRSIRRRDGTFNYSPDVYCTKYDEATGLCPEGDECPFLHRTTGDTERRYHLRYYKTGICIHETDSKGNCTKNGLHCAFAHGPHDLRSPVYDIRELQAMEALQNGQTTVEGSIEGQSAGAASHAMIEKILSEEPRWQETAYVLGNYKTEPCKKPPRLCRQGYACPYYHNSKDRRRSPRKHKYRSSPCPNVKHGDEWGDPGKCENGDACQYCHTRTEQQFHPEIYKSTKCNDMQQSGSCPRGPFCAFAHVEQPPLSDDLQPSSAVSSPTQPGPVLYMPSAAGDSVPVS
Technique: RNA Bind-n-Seq
Molecule type: RNA
Matrix: in vitro
Concentration: not given
Notes: RNA with constant flanks, human-mouse chimeric sites, ends assumed
Baseline: input RNA pool
Direction: higher = stronger binding
Quantity: bound/input enrichment
All sequences stand within: GGGAGUUCUACAGUCCGACGAUC … CAACAGAGGAUUGAGCAUCA
ACUCAGAGAUUAUAUUCCCAAAGUGCUCUGGAGCUCUGUGUGGCCACCACACCUAACUUGAUGGAUAUAUAUUUUUUUUAAUAUGAAUCUUCCUGUUCGUCCAGGGAAGAAAGAUUUGUU: 0.941 ratio
UAAAUUAGGGCUGCCGUUUUCUGUUUCUCCCUGGGCUGCGGAAAGCCAGGCGGUUUUAUCUAGCUUAUACAAGGCUGCUGGUGUUCCCUCUUUUUUUCCCUCUCUCUGUUUUUGGCUGCA: 5.47 ratio
CUGUGUGUGCUGAAUAAUGAUUUGUGAAAGAAGUUUUUCCAAGCUGUAACCCAUGCUGUUAUUAUAGUUGCUGCAAAAUGUCUCUUAUGAUAUUGAUUUUAUUUGUUAACUGAAGGUCUC: 0.365 ratio
GUAGCUGGCCAUUAGGAAAUGCUGGUAAUUUCAGUCACUUGCUGAUGACUUCUGAUGUCCCAGCAAAUAAUGCCACAGUUGACUGCUGAGAAGAUACUUCUGAGGACCCACGUCUAAGGU: 0.302 ratio
GGACAUCUGUCAAAUUGUUAUGUUCCUGUGAAACAAGUGAGCACUUUGAUACACUUCAUCUGCUUGUACAUCUGUAUGAUAGAGAAACAGAAAUCUAUUAAUCCAAGCAAUGUGUCACUU: 0.164 ratio
CACGUGUCUGCAGUACUUGAUGUGGACUACUCUCCCACUGGGAAGGAAUUUGUGUCUGCUAGUUUCGAUAAAUCUAUUAGAAUCUUUCCUGUGGACAAGAGCCGAAGCAGGGAAGUGUAU: 1.79 ratio
UAAGUUAUUUUGUACAGCUUUGUAAAUUCUUAACAUUAAUUUGUAAACAUGUUUAUUUUGUUUGGGUAAUUUGGUUCAUUAAGUACAUAGCUAAGGUAAUGAACAUCUUUUUCAGUAAUU: 0.444 ratio
GGCCUGGGACCGUCCUGGCUAGUGCAAAAUAGCGGCAGUGGAGGCUCGAGAGGAAAGUUUGUUAGUGGAGGCAGUGGUAGAGGCCGUCAUGUACGGUCUUUACACGAAUAGAUGUGUUCU: 0.974 ratio

Set 4
Target: Histone acetyltransferase KAT6A, winged helix 2, GST fusion (KAT6A, Homo sapiens, UniProt Q92794, residues 85-181)
Technique: protein binding microarray
Molecule type: double-stranded DNA, one strand shown
Matrix: in vitro
Concentration: not given
Notes: 8-mer, flanks averaged, mean of 2 arrays, mostly near background
Baseline: not given
Direction: higher = stronger binding
Quantity: E-score
Residues (chain): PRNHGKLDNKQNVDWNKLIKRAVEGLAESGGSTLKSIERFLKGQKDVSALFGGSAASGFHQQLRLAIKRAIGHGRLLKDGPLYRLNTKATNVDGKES
CGGAGGGC: 0.135
CATAACCA: -0.0833
AGTCACGA: -0.104
CAGCCCGG: 0.259
GTAAAATA: 0.0408
CGCAAGCA: 0.0714
ATACGAAA: 0.0424
GCACATGA: -0.184
GCGCATAC: 0.0204
ACAGTGGA: -0.124
AATAACTA: -0.183
CGAAGGGA: 0.0619
GAAATCCA: -0.00495
CAATCCTG: 0.0594
AGGTCCTG: 0.0449
CCTAGATA: -0.188
AGAATATG: -0.0832
AAGGAGAA: -0.17
GGGGACCA: 0.0618
CTATACGC: 0.03
GGTTCACA: 0.118
CCGCACGC: 0.192
GGGCTCAA: -0.153
TATTATAA: 0.0502
AGGTATCC: 0.0499

Repeated from above (set 4):
AGGTCCTG: 0.0449
CCTAGATA: -0.188
AGAATATG: -0.0832
AAGGAGAA: -0.17
GGGGACCA: 0.0618
CTATACGC: 0.03
GGTTCACA: 0.118
CCGCACGC: 0.192
